Assay results from different studies.
Lines come from different studies, so protocols differ. Numbers after ± are the reported error.
UniProt Q9HB89, sequence (whole entry, looked up): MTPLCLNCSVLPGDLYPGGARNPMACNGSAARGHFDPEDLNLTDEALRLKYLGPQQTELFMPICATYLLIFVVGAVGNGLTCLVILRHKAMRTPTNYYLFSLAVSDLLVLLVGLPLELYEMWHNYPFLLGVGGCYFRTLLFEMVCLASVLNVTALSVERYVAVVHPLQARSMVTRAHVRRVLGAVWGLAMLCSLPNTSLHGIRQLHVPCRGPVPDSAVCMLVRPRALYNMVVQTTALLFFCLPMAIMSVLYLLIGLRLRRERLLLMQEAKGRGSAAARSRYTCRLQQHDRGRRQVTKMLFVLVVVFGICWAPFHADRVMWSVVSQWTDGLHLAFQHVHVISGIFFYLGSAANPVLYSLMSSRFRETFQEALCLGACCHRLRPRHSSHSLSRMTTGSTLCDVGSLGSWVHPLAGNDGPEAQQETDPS
UniProt Q92995, sequence (whole entry, looked up): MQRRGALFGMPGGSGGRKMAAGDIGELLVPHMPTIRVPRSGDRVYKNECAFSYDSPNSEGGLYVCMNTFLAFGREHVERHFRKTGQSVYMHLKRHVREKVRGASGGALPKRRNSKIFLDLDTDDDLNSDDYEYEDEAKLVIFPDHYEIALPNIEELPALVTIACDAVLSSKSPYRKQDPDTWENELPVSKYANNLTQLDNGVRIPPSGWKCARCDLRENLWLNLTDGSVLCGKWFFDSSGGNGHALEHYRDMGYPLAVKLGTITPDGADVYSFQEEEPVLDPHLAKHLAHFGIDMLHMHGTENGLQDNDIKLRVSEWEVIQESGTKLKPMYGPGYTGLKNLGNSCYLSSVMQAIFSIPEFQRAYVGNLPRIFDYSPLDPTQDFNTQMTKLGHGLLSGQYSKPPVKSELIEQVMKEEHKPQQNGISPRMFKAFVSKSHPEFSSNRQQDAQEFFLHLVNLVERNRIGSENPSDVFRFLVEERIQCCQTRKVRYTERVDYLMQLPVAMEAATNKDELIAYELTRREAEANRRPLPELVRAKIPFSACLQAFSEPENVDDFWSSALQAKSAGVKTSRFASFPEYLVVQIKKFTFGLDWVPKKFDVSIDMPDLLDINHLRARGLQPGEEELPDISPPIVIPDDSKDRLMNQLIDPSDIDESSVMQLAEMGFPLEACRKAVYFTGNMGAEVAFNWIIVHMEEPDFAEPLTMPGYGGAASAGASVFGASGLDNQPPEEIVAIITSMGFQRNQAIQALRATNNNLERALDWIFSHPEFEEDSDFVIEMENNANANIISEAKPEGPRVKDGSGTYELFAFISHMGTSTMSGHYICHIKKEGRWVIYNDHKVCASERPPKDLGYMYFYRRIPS
UniProt Q13043, sequence (whole entry, looked up): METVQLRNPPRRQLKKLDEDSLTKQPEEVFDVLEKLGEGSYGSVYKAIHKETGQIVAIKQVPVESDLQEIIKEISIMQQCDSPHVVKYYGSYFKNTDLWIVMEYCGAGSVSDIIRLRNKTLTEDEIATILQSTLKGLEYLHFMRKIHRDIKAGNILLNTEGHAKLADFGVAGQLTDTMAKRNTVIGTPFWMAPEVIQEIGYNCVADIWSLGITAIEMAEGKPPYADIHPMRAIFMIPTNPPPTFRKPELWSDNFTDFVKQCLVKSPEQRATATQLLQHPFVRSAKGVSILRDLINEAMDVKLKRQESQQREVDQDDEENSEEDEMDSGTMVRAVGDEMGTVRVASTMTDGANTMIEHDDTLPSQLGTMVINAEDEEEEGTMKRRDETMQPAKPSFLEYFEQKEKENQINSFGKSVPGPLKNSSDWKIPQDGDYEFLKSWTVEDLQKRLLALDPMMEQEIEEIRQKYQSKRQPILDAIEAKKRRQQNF
UniProt Q9UBN7, sequence (whole entry, looked up): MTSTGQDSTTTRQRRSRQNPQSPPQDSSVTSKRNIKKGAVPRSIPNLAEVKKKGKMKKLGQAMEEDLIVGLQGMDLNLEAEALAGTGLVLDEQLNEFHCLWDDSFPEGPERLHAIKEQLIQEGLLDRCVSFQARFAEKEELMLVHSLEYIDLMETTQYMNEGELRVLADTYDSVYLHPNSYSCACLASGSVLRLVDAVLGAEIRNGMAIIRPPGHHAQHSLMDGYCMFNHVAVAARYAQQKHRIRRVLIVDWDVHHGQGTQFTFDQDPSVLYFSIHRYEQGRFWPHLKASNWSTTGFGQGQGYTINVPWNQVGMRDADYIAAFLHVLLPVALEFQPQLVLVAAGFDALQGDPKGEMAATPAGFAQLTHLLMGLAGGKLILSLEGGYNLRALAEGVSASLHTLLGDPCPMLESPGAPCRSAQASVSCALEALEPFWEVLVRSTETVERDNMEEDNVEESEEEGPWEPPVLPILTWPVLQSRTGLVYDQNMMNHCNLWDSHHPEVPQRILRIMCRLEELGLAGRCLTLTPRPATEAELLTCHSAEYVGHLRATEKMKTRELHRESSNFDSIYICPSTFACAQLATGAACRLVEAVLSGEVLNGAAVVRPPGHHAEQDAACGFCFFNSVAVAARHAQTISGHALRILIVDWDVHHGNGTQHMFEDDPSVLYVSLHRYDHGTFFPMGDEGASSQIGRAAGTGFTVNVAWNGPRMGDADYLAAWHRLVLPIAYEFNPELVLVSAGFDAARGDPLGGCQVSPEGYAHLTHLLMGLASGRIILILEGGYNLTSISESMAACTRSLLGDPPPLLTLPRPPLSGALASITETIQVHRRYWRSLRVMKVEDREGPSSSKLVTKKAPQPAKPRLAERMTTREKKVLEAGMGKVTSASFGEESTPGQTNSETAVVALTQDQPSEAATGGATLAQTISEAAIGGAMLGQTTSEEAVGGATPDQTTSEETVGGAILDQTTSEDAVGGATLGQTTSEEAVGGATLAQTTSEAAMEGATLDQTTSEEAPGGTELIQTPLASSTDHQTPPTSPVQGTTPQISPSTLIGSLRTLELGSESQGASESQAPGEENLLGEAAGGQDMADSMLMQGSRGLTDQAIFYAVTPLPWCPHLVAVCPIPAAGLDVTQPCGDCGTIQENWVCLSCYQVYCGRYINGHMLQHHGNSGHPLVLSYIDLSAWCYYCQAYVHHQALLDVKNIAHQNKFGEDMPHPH

Structure (SMILES) = O=C1N=C(N2CCCCC2)S/C1=C\c1cc(F)ccc1O; tested on = NG108-15; assay = intracellular chloride reduction, Clomeleon fluorescence; setting = 5 h; endpoint = EC50; result = 4.3 µM
Structure (SMILES) = C[C@H](Nc1ccc2c(c1)OCCn1cc(N3C(=O)OC[C@H]3C(F)F)nc1-2)C(N)=O; tested on = HuH-28; assay = cell growth, CellTiter-Glo; setting = 120 h; endpoint = EC50; result = 34 µM
Structure (SMILES) = O=C1N=C(N2CCCCC2)S/C1=C\c1cc(C(=O)O)ccc1O; tested on = NG108-15; assay = intracellular chloride reduction, Clomeleon fluorescence; setting = 5 h; endpoint = EC50; result = 10.1 µM
Structure (SMILES) = COc1ccc(C2CC(c3ccccc3Cl)Nc3nc(N)nn32)cc1OC (stereo not drawn); tested on = MEF with TRE-FLAG-LMNB1; assay = LMNB1 reduction, high-content screening; endpoint = EC50; result = > 250 µM
Structure (SMILES) = O=C(O)CCn1cnc2ccccc21; tested on = Protein deacetylase HDAC6, ZnF-UBD domain (HDAC6, Homo sapiens, UniProt Q9UBN7); endpoint = Kd; result = > 1000 µM
Structure (SMILES) = C[C@]12CCCN1CC1=NNC(=O)c3cc(F)cc4[nH]c2c1c34; tested on = CAPAN-1 (BRCA2-deficient); assay = cell proliferation, CellTiter-Glo; setting = 168 h; endpoint = EC50; result = 0.96 µM
Structure (SMILES) = c1ccc(COc2ccc(Nc3ccc4ncc(OCC5CCNCC5)nc4c3)cc2)cc1; tested on = Kasumi-1; assay = cell growth, XTT; setting = 7 days; endpoint = EC50; result = 3.6 ± 0.45 µM
Structure (SMILES) = CC(C)C[C@H](NC(=O)[C@H](Cc1ccccc1)NC(=O)[C@H](Cc1ccc(O)cc1)NC(=O)CNC(=O)[C@H](CCCNC(=N)N)NC(=O)[C@H](CO)NC(=O)[C@H](CCC(N)=O)NC(=O)[C@H](CO)NC(=O)[C@H](C)NC(=O)[C@H](Cc1ccccc1)NC(=O)[C@@H]1CCCN1C(=O)[C@H](CO)NC(=O)[C@H](CCC(N)=O)NC(=O)[C@H](Cc1ccccc1)NC(=O)[C@H](CCC(=O)O)NC(=O)[C@H](CCC(=O)O)NC(=O)[C@H](CC(=O)O)NC(=O)[C@@H](NC(=O)[C@H](CCCNC(=N)N)NC(=O)[C@@H](N)Cc1ccccc1)C(C)C)C(=O)N[C@@H](Cc1ccccc1)C(=O)N[C@@H](CCCNC(=N)N)C(=O)N1CCC[C@H]1C(=O)N[C@@H](CCCNC(=N)N)C(=O)N[C@@H](CC(N)=O)C(N)=O; tested on = NMUR1 (Homo sapiens, UniProt Q9HB89); assay = beta-arrestin recruitment, agonist, PathHunter luminescence; system = CHO-K1; setting = 90 min, 37 °C; endpoint = EC50; result = 9e-05 µM
Structure (SMILES) = Cc1ncc([N+](=O)[O-])n1CCO; tested on = Escherichia coli expressing NfsB_Ec nitroreductase; assay = growth inhibition, substrate, OD600; setting = 4 h; endpoint = EC50; result = 341 µM
Structure (SMILES) = c1cc(-c2cc3ncc(OCC4CCNCC4)nc3cc2-c2cccc(N3CCCCC3)c2)cc(N2CCCCC2)c1; tested on = Kasumi-1; assay = cell growth, XTT; setting = 7 days; endpoint = EC50; result = 0.8 ± 0.18 µM
Structure (SMILES) = CC(=O)Nc1nnc(N2CCN([C@@H](C)c3ccc4c(c3)OCO4)CC2)s1; tested on = PBMC; assay = protein O-GlcNAcylation; system = human whole blood ex vivo; setting = 2 h, average of 7 donors; endpoint = EC50; result = 1.99 µM
Structure (SMILES) = O=C(c1cc(Cc2n[nH]c(=O)c3ccccc23)ccc1F)N1CCN(C(=O)C2CC2)CC1; tested on = CAPAN-1 (BRCA2-deficient); assay = cell proliferation, CellTiter-Glo; setting = 168 h; endpoint = EC50; result = 0.31 µM
Structure (SMILES) = CC(C)[C@H](NC(=O)[C@@H](NC(=O)CCCc1cn(CC(O)CN2CCN(CC(=O)O)CCN(CC(=O)O)CCN(CC(=O)O)CC2)nn1)[C@@H](C)O)C(=O)N[C@@H](CCCNC(=N)N)C(=O)N[C@H](C(=O)N[C@@H](CO)C(=O)N[C@@H](C)C(=O)N[C@@H](CC(=O)O)C(=O)O)[C@@H](C)O (stereo partly drawn); system = healthy male humans, plasma; setting = intravenous bolus, 0.08 mmol/kg; endpoint = Cmax; result = 1680 ± 630 µg/mL
Structure (SMILES) = CCn1cc(-c2cc(Cn3ccnc3)cc3c2CCN([C@H](c2cc(OC)ccn2)C2CC2)C3=O)c(C(F)(F)F)n1; tested on = Lu-99; assay = cell growth, inhibitor; setting = 120 h; endpoint = EC50; result = 1.08 µM
Structure (SMILES) = Cc1c(CNC(=O)c2nn3c(c2Cl)N[C@@H](c2ccccc2)C[C@@H]3C(F)(F)F)cnn1C; tested on = MEF with TRE-FLAG-LMNB1; assay = LMNB1 reduction, high-content screening; endpoint = EC50; result = > 250 µM
Structure (SMILES) = COc1cnc2cccc(N3CCc4c(cc(Cn5ccnc5C)cc4-c4cn(C)nc4C(F)(F)F)C3=O)c2c1; tested on = LS-513; assay = cell growth, inhibitor; setting = 120 h; endpoint = EC50; result = 1.99 µM
Structure (SMILES) = COc1cccc(C2CC(c3ccccc3Cl)Nc3ncnn32)c1 (stereo not drawn); tested on = MEF with TRE-FLAG-LMNB1; assay = LMNB1 reduction, high-content screening; endpoint = EC50; result = > 150 µM
Structure (SMILES) = O=C1N=C(N2CCCCC2)S/C1=C\c1ccc(F)cc1O; tested on = NG108-15; assay = intracellular chloride reduction, Clomeleon fluorescence; setting = 5 h; endpoint = EC50; result = 2.99 µM
Structure (SMILES) = CCn1cc(-c2cc(Cn3ccoc3=N)cc3c2CCN([C@@H](C)c2cc(OC)ccn2)C3=O)c(C(F)(F)F)n1; tested on = JHOM1; assay = cell growth; setting = 120 h; endpoint = EC50; result = 0.0141 µM
Structure (SMILES) = CCOc1ccc(N([C@@H](C)C(=O)Nc2ccc(Br)c(C)c2)S(C)(=O)=O)cc1; tested on = MEF with TRE-FLAG-LMNB1; assay = LMNB1 reduction, high-content screening; endpoint = EC50; result = > 250 µM
Structure (SMILES) = O=C1N=C(N2CCCCC2)S/C1=C\c1ccccc1O; tested on = NG108-15; assay = intracellular chloride reduction, Clomeleon fluorescence; setting = 5 h; endpoint = EC50; result = 31.5 µM
Structure (SMILES) = C[C@]12CC[C@@H]3c4ccc(O)cc4CC[C@H]3[C@@H]1CC[C@@H]2O; tested on = MCF7 3xERE-luc, steroid-deprived; assay = ERE luciferase reporter, agonist; endpoint = EC50; result = 0.0002 µM
Structure (SMILES) = COc1ccc(C2CC(c3ccc(Cl)cc3Cl)Nc3nc(N)nn32)cc1OC (stereo not drawn); tested on = MEF with TRE-FLAG-LMNB1; assay = LMNB1 reduction, high-content screening; endpoint = EC50; result = > 167 µM
Structure (SMILES) = Cn1cc(-c2ccc(-c3cncc(Cl)c3N3CCC4(CCNC4=O)CC3)cc2)cn1; tested on = COLO 205; assay = gene expression, microarray, refers to: PDK4 mRNA; setting = concentration not given, 6 h; scale = relative to: untreated cells; endpoint = log2 fold change; result = -2.22
Structure (SMILES) = CSc1nc(C)c(CCC(=O)O)c(=O)[nH]1; tested on = Ubiquitin carboxyl-terminal hydrolase 13, ZnF-UBD domain (USP13, Homo sapiens, UniProt Q92995); endpoint = Kd; result = > 1000 µM
Structure (SMILES) = c1ccc(Oc2ccc(Nc3ccc4ncc(OCC5CCNCC5)nc4c3)cc2)cc1; tested on = Kasumi-1; assay = cell growth, XTT; setting = 7 days; endpoint = EC50; result = 0.83 ± 0.13 µM
Structure (SMILES) = CC[C@@H]1[C@H](F)C(=O)N[C@@H]1COc1nccc2cc(C(N)=O)c(OC)cc12; tested on = STK4 (Homo sapiens, UniProt Q13043); assay = ATP probe binding, KiNativ profiling, refers to: MST1 Lys1 probe site; system = THP-1 cell lysate; endpoint = IC50; result = > 5 µM

A few entries again:
Structure (SMILES) = CC(C)[C@H](NC(=O)[C@@H](NC(=O)CCCc1cn(CC(O)CN2CCN(CC(=O)O)CCN(CC(=O)O)CCN(CC(=O)O)CC2)nn1)[C@@H](C)O)C(=O)N[C@@H](CCCNC(=N)N)C(=O)N[C@H](C(=O)N[C@@H](CO)C(=O)N[C@@H](C)C(=O)N[C@@H](CC(=O)O)C(=O)O)[C@@H](C)O (stereo partly drawn); system = healthy male humans, plasma; setting = intravenous bolus, 0.08 mmol/kg; endpoint = Cmax; result = 1680 ± 630 µg/mL
Structure (SMILES) = Cc1c(CNC(=O)c2nn3c(c2Cl)N[C@@H](c2ccccc2)C[C@@H]3C(F)(F)F)cnn1C; tested on = MEF with TRE-FLAG-LMNB1; assay = LMNB1 reduction, high-content screening; endpoint = EC50; result = > 250 µM
Structure (SMILES) = C[C@]12CC[C@@H]3c4ccc(O)cc4CC[C@H]3[C@@H]1CC[C@@H]2O; tested on = MCF7 3xERE-luc, steroid-deprived; assay = ERE luciferase reporter, agonist; endpoint = EC50; result = 0.0002 µM
Structure (SMILES) = CSc1nc(C)c(CCC(=O)O)c(=O)[nH]1; tested on = Ubiquitin carboxyl-terminal hydrolase 13, ZnF-UBD domain (USP13, Homo sapiens, UniProt Q92995); endpoint = Kd; result = > 1000 µM
